Measurements collected from several papers.
Parts stem from different laboratories: compare values within a part only.
UniProt P48729, sequence (whole entry, looked up): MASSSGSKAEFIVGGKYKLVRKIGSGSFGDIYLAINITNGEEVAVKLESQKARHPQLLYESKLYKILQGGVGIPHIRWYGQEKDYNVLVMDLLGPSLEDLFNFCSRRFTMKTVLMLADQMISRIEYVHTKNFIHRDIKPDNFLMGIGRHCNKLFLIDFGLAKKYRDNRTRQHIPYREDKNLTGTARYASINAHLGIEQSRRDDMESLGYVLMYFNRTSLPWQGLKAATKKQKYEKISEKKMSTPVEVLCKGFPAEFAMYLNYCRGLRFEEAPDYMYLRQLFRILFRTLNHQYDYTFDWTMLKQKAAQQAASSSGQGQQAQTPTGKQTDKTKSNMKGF
UniProt Q13976, sequence (whole entry, looked up): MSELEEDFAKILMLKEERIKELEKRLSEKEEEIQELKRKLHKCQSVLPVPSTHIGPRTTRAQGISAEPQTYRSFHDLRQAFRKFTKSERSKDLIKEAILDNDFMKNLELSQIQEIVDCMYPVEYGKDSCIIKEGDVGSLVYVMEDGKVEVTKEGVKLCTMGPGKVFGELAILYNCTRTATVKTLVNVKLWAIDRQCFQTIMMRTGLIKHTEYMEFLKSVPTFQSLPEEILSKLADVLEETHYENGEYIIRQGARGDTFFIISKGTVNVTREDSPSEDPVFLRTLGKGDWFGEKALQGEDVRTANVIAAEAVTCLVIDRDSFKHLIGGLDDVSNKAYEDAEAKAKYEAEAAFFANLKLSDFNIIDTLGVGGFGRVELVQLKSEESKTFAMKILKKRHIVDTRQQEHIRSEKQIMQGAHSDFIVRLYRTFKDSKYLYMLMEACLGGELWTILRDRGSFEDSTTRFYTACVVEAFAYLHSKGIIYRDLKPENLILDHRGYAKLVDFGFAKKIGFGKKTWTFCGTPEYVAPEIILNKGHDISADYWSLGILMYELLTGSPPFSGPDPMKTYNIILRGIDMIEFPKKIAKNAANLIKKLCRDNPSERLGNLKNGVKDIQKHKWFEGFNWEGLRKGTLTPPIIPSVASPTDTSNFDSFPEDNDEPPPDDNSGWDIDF
UniProt Q9NWZ3, sequence (whole entry, looked up): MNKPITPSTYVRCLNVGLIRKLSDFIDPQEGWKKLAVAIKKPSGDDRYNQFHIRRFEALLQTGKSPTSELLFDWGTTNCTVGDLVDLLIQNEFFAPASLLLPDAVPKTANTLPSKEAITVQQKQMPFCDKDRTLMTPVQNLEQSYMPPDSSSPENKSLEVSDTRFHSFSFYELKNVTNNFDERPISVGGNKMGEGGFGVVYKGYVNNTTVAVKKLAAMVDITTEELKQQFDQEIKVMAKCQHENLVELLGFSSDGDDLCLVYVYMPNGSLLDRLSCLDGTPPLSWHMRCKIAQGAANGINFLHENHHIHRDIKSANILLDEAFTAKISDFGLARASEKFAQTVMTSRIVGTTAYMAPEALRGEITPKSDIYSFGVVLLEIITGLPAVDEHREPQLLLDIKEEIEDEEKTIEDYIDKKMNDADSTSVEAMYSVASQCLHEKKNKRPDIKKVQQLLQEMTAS
UniProt Q14004, sequence (whole entry, looked up): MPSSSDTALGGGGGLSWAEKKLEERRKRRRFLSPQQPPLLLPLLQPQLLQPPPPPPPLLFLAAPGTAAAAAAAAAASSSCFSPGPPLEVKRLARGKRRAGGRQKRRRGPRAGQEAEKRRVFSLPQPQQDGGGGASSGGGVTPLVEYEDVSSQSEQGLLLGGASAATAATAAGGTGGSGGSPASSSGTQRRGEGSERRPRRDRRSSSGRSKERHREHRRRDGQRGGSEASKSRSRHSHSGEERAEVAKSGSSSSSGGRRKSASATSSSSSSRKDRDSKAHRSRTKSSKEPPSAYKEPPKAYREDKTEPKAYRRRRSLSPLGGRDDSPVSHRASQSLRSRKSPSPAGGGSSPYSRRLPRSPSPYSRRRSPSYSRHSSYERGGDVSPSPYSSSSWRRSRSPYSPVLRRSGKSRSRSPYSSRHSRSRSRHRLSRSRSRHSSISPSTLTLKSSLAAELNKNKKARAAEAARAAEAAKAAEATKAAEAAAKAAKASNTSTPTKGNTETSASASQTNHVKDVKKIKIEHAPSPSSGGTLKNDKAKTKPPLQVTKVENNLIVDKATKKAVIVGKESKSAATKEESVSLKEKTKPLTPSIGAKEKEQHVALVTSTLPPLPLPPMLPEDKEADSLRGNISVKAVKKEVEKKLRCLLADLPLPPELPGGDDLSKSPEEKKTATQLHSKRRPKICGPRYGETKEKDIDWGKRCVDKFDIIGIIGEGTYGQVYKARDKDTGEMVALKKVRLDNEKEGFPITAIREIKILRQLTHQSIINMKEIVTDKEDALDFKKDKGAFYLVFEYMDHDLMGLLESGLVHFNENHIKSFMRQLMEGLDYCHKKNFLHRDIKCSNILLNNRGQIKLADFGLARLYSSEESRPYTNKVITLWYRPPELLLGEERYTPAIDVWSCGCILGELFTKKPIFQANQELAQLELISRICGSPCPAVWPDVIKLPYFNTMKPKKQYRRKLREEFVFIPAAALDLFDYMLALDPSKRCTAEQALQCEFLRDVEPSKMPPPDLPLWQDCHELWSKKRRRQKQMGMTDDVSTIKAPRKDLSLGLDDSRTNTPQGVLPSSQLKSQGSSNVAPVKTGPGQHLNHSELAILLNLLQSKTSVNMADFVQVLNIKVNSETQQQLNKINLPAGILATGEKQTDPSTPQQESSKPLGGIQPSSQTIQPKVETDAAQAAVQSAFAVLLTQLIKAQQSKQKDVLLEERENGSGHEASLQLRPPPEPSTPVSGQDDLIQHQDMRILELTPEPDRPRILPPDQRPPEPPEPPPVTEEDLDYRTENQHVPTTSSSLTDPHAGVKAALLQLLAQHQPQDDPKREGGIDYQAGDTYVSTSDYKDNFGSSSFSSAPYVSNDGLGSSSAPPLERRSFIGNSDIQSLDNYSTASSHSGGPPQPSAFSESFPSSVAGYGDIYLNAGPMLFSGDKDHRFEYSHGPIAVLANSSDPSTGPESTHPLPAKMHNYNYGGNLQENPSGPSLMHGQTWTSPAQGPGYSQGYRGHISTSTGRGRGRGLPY
UniProt P36507, sequence (whole entry, looked up): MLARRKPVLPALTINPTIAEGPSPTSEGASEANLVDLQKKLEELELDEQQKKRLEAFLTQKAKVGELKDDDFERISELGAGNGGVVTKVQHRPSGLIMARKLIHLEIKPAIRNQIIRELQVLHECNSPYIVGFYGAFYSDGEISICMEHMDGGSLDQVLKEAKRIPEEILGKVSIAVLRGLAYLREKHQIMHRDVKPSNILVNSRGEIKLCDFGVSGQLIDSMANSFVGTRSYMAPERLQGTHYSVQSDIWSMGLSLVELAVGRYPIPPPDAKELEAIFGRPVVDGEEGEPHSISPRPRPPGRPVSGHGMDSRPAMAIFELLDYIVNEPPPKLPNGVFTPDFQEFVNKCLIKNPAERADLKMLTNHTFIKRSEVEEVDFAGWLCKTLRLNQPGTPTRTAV
UniProt Q9NYY3, sequence (whole entry, looked up): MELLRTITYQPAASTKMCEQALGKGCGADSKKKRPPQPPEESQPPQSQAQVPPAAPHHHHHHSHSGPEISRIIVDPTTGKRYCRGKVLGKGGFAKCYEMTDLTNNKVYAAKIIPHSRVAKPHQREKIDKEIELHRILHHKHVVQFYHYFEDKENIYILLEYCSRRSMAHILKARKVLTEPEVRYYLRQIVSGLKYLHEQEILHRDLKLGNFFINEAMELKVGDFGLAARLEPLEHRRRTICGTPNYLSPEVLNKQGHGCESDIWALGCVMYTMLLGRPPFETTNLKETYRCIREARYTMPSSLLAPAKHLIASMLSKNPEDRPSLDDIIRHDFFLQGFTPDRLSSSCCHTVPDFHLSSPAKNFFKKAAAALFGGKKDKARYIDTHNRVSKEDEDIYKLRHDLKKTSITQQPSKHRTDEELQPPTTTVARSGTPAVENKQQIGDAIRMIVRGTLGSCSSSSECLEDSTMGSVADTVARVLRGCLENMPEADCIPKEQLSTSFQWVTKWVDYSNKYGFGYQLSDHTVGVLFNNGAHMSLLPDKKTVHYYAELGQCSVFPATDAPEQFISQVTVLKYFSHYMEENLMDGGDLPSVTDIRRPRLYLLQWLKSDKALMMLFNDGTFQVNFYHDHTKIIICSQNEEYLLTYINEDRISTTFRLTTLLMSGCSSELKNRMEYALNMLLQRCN
UniProt P52564, sequence (whole entry, looked up): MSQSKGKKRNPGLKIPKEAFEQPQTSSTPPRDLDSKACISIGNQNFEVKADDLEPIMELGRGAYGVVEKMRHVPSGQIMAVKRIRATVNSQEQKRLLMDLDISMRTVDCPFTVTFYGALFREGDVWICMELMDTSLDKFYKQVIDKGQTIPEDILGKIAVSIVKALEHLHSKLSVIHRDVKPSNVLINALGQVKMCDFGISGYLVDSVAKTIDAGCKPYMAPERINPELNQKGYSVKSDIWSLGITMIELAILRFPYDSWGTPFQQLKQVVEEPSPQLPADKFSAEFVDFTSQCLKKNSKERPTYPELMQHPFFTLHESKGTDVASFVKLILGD

Set 1
Structure (SMILES): CC(C)n1cnc(-c2ccc(F)cc2)c1-c1ncc(C(=O)Nc2ccc(N3CCN(C)CC3)cc2)[nH]1
| assay | test system | conditions | patients with TEAE [%] |
| --- | --- | --- | --- |
| phase 2a trial | patients with idiopathic pulmonary fibrosis | 30 mg once daily, nervous system disorders SOC, grade 3 | 0 |
| phase 2a trial | idiopathic pulmonary fibrosis patients | oral, 60 mg once daily, GLDH increased, grade 5 | 0 |
| phase 2a trial | idiopathic pulmonary fibrosis patients | oral, 60 mg once daily, LDL increased, grade 1 | 1 |
| measured: periorbital oedema | idiopathic pulmonary fibrosis patients | 30 mg once daily | 0 |
| phase 2a trial | idiopathic pulmonary fibrosis patients | oral, 30 mg once daily, GLDH increased, grade 4 | 0 |
| phase 2a trial | idiopathic pulmonary fibrosis patients | oral, 60 mg once daily, disc protrusion, grade 4 | 0 |
| measured: erythrocyte sedimentation rate increased | idiopathic pulmonary fibrosis patients | 30 mg once daily | 0 |
| phase 2a trial | patients with idiopathic pulmonary fibrosis | 30 mg once daily, renal and urinary disorders SOC, grade 3 | 0 |
| phase 2a trial | idiopathic pulmonary fibrosis patients | oral, 60 mg once daily, musculoskeletal disorders, grade 3 | 0 |
| phase 2a trial | patients with idiopathic pulmonary fibrosis | 30 mg once daily, free thyroxine decreased, grade 3 | 0 |
| phase 2a trial | idiopathic pulmonary fibrosis patients | oral, 60 mg once daily, musculoskeletal disorders, grade 1 | 0 |

Set 2 — Compound: c1ccc(N2CCN(Cc3nc4ccccc4[nH]3)CC2)nc1; concentration: 1 µM
| target | assay | remaining binding |
| --- | --- | --- |
| Cyclin-dependent kinase 19 (CDK19, Homo sapiens, UniProt Q9BWU1) | competition binding | 87% |
| Serine/threonine-protein kinase SBK1 (SBK1, Homo sapiens, UniProt Q52WX2) | binding, competition with immobilised ligand | 100% |
| Phosphatidylinositol 4,5-bisphosphate 3-kinase catalytic subunit alpha isoform (PIK3CA, Homo sapiens, UniProt P42336, E542K) | cell-free assay, competition with immobilised ligand | 100% |
| Mitogen-activated protein kinase kinase kinase 15 (MAP3K15, Homo sapiens, UniProt Q6ZN16) | binding, competition with immobilised ligand | 100% |
| Serine/threonine-protein kinase pim-3 (PIM3, Homo sapiens, UniProt Q86V86) | binding, competition with immobilised ligand | 100% |
| Dual specificity mitogen-activated protein kinase kinase 2 (MAP2K2, Homo sapiens, UniProt P36507) | binding, competition with immobilised ligand | 100% |
| Bone morphogenetic protein receptor type-2 (BMPR2, Homo sapiens, UniProt Q13873) | cell-free assay, competition with immobilised ligand | 100% |
| Dual specificity tyrosine-phosphorylation-regulated kinase 1B (DYRK1B, Homo sapiens, UniProt Q9Y463) | cell-free assay, competition with immobilised ligand | 100% |
| Dual specificity mitogen-activated protein kinase kinase 5 (MAP2K5, Homo sapiens, UniProt Q13163) | binding, competition with immobilised ligand | 83% |
| Serine/threonine-protein kinase Nek9 (NEK9, Homo sapiens, UniProt Q8TD19) | binding, competition with immobilised ligand | 100% |
| Serine/threonine-protein kinase PLK2 (PLK2, Homo sapiens, UniProt Q9NYY3) | binding, competition with immobilised ligand | 100% |
| Cyclin-dependent kinase 13 (CDK13, Homo sapiens, UniProt Q14004) | binding, competition with immobilised ligand | 100% |
| Ribosomal protein S6 kinase alpha-6, N-terminal kinase domain (RPS6KA6, Homo sapiens, UniProt Q9UK32) | binding, competition with immobilised ligand | 100% |
| Mitogen-activated protein kinase kinase kinase 7 (MAP3K7, Homo sapiens, UniProt O43318) | binding, competition with immobilised ligand | 52% |
| Casein kinase I isoform delta (CSNK1D, Homo sapiens, UniProt P48730) | cell-free assay, competition with immobilised ligand | 95% |
| Cyclin-dependent kinase 14 (CDK14, Homo sapiens, UniProt O94921) | binding, competition with immobilised ligand | 100% |
| Serine/threonine-protein kinase Chk2 (CHEK2, Homo sapiens, UniProt O96017) | binding, competition with immobilised ligand | 100% |
| Myosin light chain kinase family member 4 (MYLK4, Homo sapiens, UniProt Q86YV6) | cell-free assay, competition with immobilised ligand | 97% |
| Serine/threonine-protein kinase haspin (HASPIN, Homo sapiens, UniProt Q8TF76) | cell-free assay, competition with immobilised ligand | 100% |
| Serine/threonine-protein kinase pim-1 (PIM1, Homo sapiens, UniProt P11309) | binding, competition with immobilised ligand | 90% |
| Death-associated protein kinase 3 (DAPK3, Homo sapiens, UniProt O43293) | binding, competition with immobilised ligand | 91% |
| Hepatocyte growth factor receptor (MET, Homo sapiens, UniProt P08581, Y1235D) | cell-free assay, competition with immobilised ligand | 100% |
| Dual specificity protein kinase CLK3 (CLK3, Homo sapiens, UniProt P49761) | binding, competition with immobilised ligand | 100% |
| Serine/threonine-protein kinase/endoribonuclease IRE1 (ERN1, Homo sapiens, UniProt O75460) | cell-free assay, competition with immobilised ligand | 100% |

Set 3 — effect on: enzyme activity; action: inhibitor; concentration: 0.5 µM; baseline: control
Compound: O=S(=O)(NCCNC/C=C/c1ccc(Br)cc1)c1cccc2cnccc12
| target | remaining activity [%] |
| --- | --- |
| Mitogen-activated protein kinase 13 (MAPK13, Homo sapiens, UniProt O15264) | 101 |
| Tyrosine-protein kinase BTK (BTK, Homo sapiens, UniProt Q06187) | 97.4 |
| Mitogen-activated protein kinase kinase kinase kinase 2 (MAP4K2, Homo sapiens, UniProt Q12851) | 51.1 |
| Casein kinase II subunit alpha (CSNK2A1, Homo sapiens, UniProt P68400) | 97.8 |
| Interleukin-1 receptor-associated kinase 4 (IRAK4, Homo sapiens, UniProt Q9NWZ3) | 110 |
| Leucine-rich repeat serine/threonine-protein kinase 2 (LRRK2, Homo sapiens, UniProt Q5S007) | 86.2 |
| Serine/threonine-protein kinase WNK2 (WNK2, Homo sapiens, UniProt Q9Y3S1) | 99.3 |
| Serine/threonine-protein kinase Nek4 (NEK4, Homo sapiens, UniProt P51957) | 96.9 |
| Dual specificity mitogen-activated protein kinase kinase 6 (MAP2K6, Homo sapiens, UniProt P52564) | 81.3 |
| Serine/threonine-protein kinase Chk1 (CHEK1, Homo sapiens, UniProt O14757) | 90.8 |
| Tyrosine-protein kinase Lyn (LYN, Homo sapiens, UniProt P07948) | 126 |
| RAC-gamma serine/threonine-protein kinase (AKT3, Homo sapiens, UniProt Q9Y243) | 69 |
| Mast/stem cell growth factor receptor Kit (KIT, Homo sapiens, UniProt P10721) | 101 |
| Mitogen-activated protein kinase kinase kinase 10 (MAP3K10, Homo sapiens, UniProt Q02779) | 85.5 |
| Protein kinase C delta type (PRKCD, Homo sapiens, UniProt Q05655) | 38.1 |
| Ephrin type-A receptor 5 (EPHA5, Homo sapiens, UniProt P54756) | 96.9 |
| cGMP-dependent protein kinase 1 (PRKG1, Homo sapiens, UniProt Q13976) | 26.3 |
| MAP kinase-interacting serine/threonine-protein kinase 2 (MKNK2, Homo sapiens, UniProt Q9HBH9) | 78.7 |
| Casein kinase I isoform alpha (CSNK1A1, Homo sapiens, UniProt P48729) | 57.9 |
| Cyclin-dependent kinase 9, with cyclin T1 (CDK9, Homo sapiens, UniProt P50750) | 87.8 |

Set 4 — organism: Plasmodium berghei; cell line: Huh-7; strain: liver stage; concentration: 10 µM; time: 24 h; baseline: control
| Structure (SMILES) | parasite load |
| --- | --- |
| CN1CCN(CC(=O)N2c3ccccc3C(=O)Nc3cccnc32)CC1 | 106% |
| CN1CCC(=C2c3ccccc3C=Cc3ccccc32)CC1 | 68.4% |
| CC(C)C[C@H]1C(=O)N2CCC[C@H]2[C@]2(O)O[C@](NC(=O)[C@@H]3C=C4c5cccc6[nH]c(Br)c(c56)C[C@H]4N(C)C3)(C(C)C)C(=O)N12 | 55.8% |
| CC(C)(C(=O)O)c1ccc(C(O)CCCN2CCC(C(O)(c3ccccc3)c3ccccc3)CC2)cc1 (stereo not drawn) | 112% |
| Cc1cc2c(s1)Nc1ccccc1N=C2N1CCN(C)CC1 | 91.2% |
| O=C1OCCN1/N=C/c1ccc([N+](=O)[O-])o1 | 54.7% |
| C[N+]1(C)[C@@H]2C[C@@H](OC(=O)[C@H](CO)c3ccccc3)C[C@H]1[C@@H]1O[C@@H]12 | 104% |
| CC(C)NCC(O)COc1cccc2ccccc12 (racemic) | 87.6% |
| O=C(O)c1ccccc1O | 107% |
| CN1[C@@H]2C[C@@H](OC(=O)[C@H](CO)c3ccccc3)C[C@H]1[C@@H]1O[C@@H]12 | 112% |
| CN1[C@@H]2CC[C@H]1C[C@@H](OC(c1ccccc1)c1ccccc1)C2 | 74.7% |
